# Experimental data collected from several papers.
# Numbers after ± are the reported error.
# CDC48A: CDC48A 1-463 (Arabidopsis thaliana, UniProt P54609)
# Sequence of UniProt P54609 (whole entry, looked up): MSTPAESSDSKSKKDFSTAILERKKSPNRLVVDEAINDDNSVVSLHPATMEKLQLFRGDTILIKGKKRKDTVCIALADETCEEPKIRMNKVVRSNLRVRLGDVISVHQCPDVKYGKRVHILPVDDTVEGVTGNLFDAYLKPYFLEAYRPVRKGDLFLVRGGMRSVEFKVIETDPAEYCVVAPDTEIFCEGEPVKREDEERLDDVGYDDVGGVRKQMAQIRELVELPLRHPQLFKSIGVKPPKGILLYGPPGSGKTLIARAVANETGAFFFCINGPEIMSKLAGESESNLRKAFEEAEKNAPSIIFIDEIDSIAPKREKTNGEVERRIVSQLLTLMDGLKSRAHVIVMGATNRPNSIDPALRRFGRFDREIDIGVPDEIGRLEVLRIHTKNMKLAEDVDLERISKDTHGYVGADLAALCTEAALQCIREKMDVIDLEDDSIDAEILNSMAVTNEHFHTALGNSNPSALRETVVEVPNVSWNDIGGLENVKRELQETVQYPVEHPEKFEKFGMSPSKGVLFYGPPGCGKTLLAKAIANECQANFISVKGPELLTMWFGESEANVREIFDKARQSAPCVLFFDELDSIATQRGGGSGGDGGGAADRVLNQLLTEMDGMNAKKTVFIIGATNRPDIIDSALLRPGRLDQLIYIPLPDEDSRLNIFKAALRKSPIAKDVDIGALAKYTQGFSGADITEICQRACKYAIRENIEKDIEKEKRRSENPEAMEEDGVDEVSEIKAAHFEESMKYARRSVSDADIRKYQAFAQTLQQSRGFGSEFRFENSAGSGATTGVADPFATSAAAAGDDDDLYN
# TNFSF4: TNFSF4 51-183 (Homo sapiens, UniProt P23510)
# Sequence of UniProt P23510 (whole entry, looked up): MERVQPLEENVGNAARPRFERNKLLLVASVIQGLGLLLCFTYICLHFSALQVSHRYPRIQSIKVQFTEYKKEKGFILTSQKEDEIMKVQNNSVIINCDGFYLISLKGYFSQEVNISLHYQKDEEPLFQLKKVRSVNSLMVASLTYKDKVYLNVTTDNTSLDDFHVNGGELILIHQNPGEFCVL
# NFKBIA: NFKBIA 67-206 (Homo sapiens, UniProt P25963)
# Sequence of UniProt P25963 (whole entry, looked up): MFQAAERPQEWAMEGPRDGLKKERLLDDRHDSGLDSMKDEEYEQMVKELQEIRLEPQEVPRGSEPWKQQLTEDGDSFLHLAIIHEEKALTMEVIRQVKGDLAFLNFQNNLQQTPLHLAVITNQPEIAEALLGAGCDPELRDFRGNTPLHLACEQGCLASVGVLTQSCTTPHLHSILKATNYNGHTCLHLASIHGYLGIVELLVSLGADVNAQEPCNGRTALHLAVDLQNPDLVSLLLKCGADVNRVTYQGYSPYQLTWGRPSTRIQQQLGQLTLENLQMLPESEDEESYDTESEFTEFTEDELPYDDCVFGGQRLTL
# B1: PUX7 322-468 (Arabidopsis thaliana, UniProt Q94JZ8); chain EDVAKDEEEEELQRALAASLEDNNMKESSDDQSTIIPEEVAVEAVTSAVLPTFPPLPEEPKGGDRSLQCRVGIRLPNGQRLQRNFLKTDTIQLLWSFCYSQLEESERKKPLKLTQAIPGESKTLEYESNLTLEQSGVANSMISATWE
# B2: TNFRSF4 29-170 V53A (Homo sapiens, UniProt P43489); sequence looked up; chain LHCVGDTYPSNDRCCHECRPGNGMASRCSRSQNTVCRPCGPGFYNDVVSSKPCKPCTWCNLRSGSERKQLCTATQDTVCRCRAGTQPLDSYKPGVDCAPCPPGHFSPGDNQACKPWTNCTLAGKHTLQPASNSSDAICEDRD
# B3: PUX9 390-469 (Arabidopsis thaliana, UniProt Q4V3D3); chain AITLLVRMPDSSRHGRRFLKSDKLKYLFDFIDAAGLVKPGTYRVVRPYPRRAFSIQDGALTFEELSLTNKQEALFLELLV
# B4: HCK 78-138 (Homo sapiens, UniProt P08631); chain SEDIIVVALYDYEAIHHEDLSFQKGDQMVVLEESGEWWKARSLATRKEGYIPSNYVARVDS
# B5: PUX2 1-149 (Arabidopsis thaliana, UniProt Q9ZU93); chain MDDVKDKLKGFMKKVNLSSSSGKFKGQGRVLGSSSSSSAPPVNPIQNRFNSSQAPNPTPRPKPNPNPLPEKPLSSSDQKISGSTRNPDHDPVRAPQDGFDPYGAFITSSNRSQNGYSLSMFECPICKNPFTSEEEVSVHVESCLGDTNG
# B6: TNFRSF4 29-170 W86A (Homo sapiens, UniProt P43489); sequence looked up; chain LHCVGDTYPSNDRCCHECRPGNGMVSRCSRSQNTVCRPCGPGFYNDVVSSKPCKPCTACNLRSGSERKQLCTATQDTVCRCRAGTQPLDSYKPGVDCAPCPPGHFSPGDNQACKPWTNCTLAGKHTLQPASNSSDAICEDRD
# B7: UBASH3A 276-340 (Homo sapiens, UniProt P57075); chain VHYQTLRALFQYKPQNVDELTLSPGDYIFVDPTQQDEASEGWVIGISQRTGCRGFLPENYTDRAS
# B8: DTNA 458-564 (Homo sapiens, UniProt Q9Y4J8-1); sequence looked up; chain SAPDISFTIDANKQQRQLIAELENKNREILQEIQRLRLEHEQASQPTPEKAQQNPTLLAELRLLRQRKDELEQRMSALQESRRELMVQLEGLMKLLKTQGAGSPRSS
# B9: ATG23 full-length, dimer (Saccharomyces cerevisiae, UniProt Q06671); sequence looked up; chain MELNQVLEKKEQILQYLGTLVGLHEKALSDVNSASQVTSIRKDITICLNDLCRINDLLVSHDGLLKREIGSLLRDKQELLELNEREQLLWKERKSWHIKQETDAAPADYVIDKDAIITISSHHRTSLNKYIESVGAENTILSNTDDSDAMIEEVQNAESSADQMIRNYKLLQLSHKQAKSEIIRLETLLRDFKKDNKFIEEELKRQSGRIRSEMGNIDFHLSKIEESKHQLMKRIGFESPLTQEKSLSEKIFNLRLSSADEDYNERQTINMKNFVHMKDLIELKIEDLQEQLMRNKNESSTVLTQRELWLDCQKKVGDLESKLITKLRSSSNSKIPPNEMSEMINSTIQYLNNLLDSSDEKLTTTLISNERDVLSKACEELHSESTTAQDGSSALPSKPIDIHKSHKGSNASSNLKQPSTPSFLVASKSPPKIGISESVVNANKNDAISKKVE
# B10: PUX7 171-468 (Arabidopsis thaliana, UniProt Q94JZ8); chain LASLYRPPFHLMFQGSFEQAKTTSSSQDKWLLVNLQSTTEFSSHMLNRDTWANDAVSQTIKANFIFWQVYDDTTEGRKVCTYYKLESIPVVLVIDPTTGQRMRMWTGMVDPENLLEDLVPFMDGGPREHFASLSKKRPRGSFSLTPHSKPKEDVAKDEEEEELQRALAASLEDNNMKESSDDQSTIIPEEVAVEAVTSAVLPTFPPLPEEPKGGDRSLQCRVGIRLPNGQRLQRNFLKTDTIQLLWSFCYSQLEESERKKPLKLTQAIPGESKTLEYESNLTLEQSGVANSMISATWE
# Sequence of UniProt P27986 (whole entry, unmodified, looked up): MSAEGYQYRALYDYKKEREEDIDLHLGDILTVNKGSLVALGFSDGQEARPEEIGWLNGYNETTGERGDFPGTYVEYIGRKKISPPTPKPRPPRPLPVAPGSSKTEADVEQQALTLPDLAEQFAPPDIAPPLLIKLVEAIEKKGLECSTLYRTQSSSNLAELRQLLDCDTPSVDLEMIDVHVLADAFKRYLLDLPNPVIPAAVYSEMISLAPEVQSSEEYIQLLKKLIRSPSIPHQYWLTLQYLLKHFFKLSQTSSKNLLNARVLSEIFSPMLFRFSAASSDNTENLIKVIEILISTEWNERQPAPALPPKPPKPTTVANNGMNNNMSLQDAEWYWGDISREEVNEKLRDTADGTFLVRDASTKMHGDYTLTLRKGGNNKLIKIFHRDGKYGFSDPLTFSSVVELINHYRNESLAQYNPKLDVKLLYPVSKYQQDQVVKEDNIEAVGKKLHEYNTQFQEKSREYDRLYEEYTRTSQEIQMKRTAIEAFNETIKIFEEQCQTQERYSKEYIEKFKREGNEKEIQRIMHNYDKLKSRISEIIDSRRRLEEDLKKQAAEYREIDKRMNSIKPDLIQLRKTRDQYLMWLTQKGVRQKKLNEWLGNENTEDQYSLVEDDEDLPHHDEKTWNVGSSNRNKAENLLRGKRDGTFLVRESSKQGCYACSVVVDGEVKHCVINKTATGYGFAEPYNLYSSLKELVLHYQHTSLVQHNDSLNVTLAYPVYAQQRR
# Sequence of UniProt Q7Y175 (whole entry, unmodified, looked up): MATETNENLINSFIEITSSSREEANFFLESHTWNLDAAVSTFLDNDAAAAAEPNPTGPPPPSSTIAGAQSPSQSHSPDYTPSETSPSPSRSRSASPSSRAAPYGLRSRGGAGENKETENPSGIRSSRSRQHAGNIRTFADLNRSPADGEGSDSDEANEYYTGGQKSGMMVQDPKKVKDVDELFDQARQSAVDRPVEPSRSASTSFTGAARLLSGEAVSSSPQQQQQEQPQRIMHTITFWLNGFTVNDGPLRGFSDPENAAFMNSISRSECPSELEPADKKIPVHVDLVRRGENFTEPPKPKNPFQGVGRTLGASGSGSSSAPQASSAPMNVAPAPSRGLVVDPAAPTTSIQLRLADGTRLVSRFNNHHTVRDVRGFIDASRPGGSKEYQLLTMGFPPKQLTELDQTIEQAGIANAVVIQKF
# Sequence of UniProt Q12142 (whole entry, unmodified, looked up): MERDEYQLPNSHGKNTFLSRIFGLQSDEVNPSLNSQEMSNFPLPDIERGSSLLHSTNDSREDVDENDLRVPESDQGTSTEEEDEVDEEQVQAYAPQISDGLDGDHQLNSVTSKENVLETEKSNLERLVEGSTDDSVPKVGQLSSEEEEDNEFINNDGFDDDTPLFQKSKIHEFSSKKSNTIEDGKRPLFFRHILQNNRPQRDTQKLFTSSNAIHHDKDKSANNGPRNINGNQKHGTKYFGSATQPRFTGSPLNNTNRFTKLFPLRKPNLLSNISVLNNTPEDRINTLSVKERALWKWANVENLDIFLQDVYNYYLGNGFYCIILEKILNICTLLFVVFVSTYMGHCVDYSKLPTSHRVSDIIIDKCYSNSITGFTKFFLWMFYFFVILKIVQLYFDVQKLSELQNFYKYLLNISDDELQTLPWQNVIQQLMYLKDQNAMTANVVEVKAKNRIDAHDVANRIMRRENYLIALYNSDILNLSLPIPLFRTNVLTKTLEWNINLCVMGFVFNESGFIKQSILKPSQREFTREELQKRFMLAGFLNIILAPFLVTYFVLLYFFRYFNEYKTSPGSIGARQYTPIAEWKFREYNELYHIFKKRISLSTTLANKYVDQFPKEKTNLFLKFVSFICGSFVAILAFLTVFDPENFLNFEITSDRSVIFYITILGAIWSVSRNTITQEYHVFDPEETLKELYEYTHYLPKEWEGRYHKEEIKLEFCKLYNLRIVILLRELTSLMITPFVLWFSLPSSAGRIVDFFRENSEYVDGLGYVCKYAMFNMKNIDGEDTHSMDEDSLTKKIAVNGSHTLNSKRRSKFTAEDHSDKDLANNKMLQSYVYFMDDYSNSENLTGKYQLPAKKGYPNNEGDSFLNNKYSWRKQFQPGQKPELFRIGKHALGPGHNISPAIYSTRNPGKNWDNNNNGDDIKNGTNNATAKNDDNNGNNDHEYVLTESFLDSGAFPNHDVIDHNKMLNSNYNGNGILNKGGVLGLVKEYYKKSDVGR
# Sequence of UniProt Q86YC2 (whole entry, unmodified, looked up): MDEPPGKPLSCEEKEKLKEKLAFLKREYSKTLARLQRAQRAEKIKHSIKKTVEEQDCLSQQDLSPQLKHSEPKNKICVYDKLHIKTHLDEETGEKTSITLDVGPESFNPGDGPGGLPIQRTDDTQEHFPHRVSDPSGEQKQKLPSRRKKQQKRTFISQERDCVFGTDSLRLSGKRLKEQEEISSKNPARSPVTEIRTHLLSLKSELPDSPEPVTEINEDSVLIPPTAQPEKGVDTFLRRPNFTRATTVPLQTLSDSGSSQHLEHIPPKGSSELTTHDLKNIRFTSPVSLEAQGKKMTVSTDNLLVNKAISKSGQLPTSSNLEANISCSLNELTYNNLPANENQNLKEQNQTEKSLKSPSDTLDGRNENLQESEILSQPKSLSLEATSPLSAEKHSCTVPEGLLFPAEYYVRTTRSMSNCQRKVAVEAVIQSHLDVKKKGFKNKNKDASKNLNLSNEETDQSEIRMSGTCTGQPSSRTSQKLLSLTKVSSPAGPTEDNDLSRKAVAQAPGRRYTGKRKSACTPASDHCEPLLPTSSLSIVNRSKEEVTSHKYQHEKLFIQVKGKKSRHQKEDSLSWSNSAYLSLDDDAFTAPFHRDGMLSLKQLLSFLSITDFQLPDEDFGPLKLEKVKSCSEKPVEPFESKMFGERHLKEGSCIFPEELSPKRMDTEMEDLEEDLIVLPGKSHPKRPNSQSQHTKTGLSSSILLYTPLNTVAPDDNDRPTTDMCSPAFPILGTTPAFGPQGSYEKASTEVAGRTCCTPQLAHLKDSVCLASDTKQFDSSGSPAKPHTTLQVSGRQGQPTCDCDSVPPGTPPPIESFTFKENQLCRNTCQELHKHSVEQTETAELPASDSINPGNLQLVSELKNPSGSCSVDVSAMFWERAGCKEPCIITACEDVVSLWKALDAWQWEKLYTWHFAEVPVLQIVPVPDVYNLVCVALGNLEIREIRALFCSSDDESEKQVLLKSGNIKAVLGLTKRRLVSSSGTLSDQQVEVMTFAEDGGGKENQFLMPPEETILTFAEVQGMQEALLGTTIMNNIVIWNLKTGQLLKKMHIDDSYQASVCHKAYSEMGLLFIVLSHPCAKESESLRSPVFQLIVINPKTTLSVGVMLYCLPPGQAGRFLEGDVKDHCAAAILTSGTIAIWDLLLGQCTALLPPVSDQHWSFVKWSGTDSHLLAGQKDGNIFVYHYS
Substance,tested on,test,test system,setting,how to read,measurement,result
"FGA (Homo sapiens, UniProt P02671)","STK38 (Homo sapiens, UniProt Q15208)",cross-linking MS,,together with: DSSO,,cross-linked residues,K440 to K118
"Atg23 full-length, dimer (yeast, UniProt Q06671)","ATG9 864-997 (Saccharomyces cerevisiae, UniProt Q12142)",ITC,,"pH 8, 20 °C, NaCl 150 mM, independent binding model, together with: TCEP 0.2 mM",,ΔH,-3.27 kcal/mol
B1 (PUX7 322-468),CDC48A,ITC,,,,ΔH,2.08 ± 0.0717 kcal/mol
B2 (TNFRSF4 29-170 V53A),TNFSF4,SPR,,van't Hoff,,ΔH,-23 kcal/mol
TASPAKETSF,human SCRIB PDZ3-4 tandem (MBP fusion),automated holdup,"peptide, crude extract","concentration not given, uncorrected, unit not given","reference: biotin control resin, higher = stronger binding",binding intensity,0.839
"LPDTDDRHRIEEKRKRTAETFKSIMKKSPFNGP (Rela 289-321 Y306A (Mus musculus, UniProt Q04207); sequence looked up)",NFKBIA,ITC,peptide,,,ΔH,-2.3 ± 0.01 kcal/mol
B3 (PUX9 390-469),CDC48A,ITC,,,,ΔH,1.2 ± 0.0956 kcal/mol
"QEDIIRNIARHLAQVGDSMDRSIPPG (BID 79-104 (Homo sapiens, UniProt P55957); sequence looked up)","BCL2L1 1-208 N52D/N66D (Homo sapiens, UniProt Q07817-1)",ITC,peptide,,,ΔH,-4.88 ± 0.167 kcal/mol
"LPDTDDRHRIEEKRKRTYETFKSIMKKSPFNGP (Rela 289-321 (Mus musculus, UniProt Q04207); sequence looked up)",NFKBIA,ITC,peptide,,,ΔH,-3.7 ± 0.03 kcal/mol
KPGKGSETVV,human MAGI1-3/6 PDZ construct (MBP fusion),automated holdup,"peptide, crude extract","concentration not given, uncorrected, unit not given","reference: biotin control resin, higher = stronger binding",binding intensity,0.0963
B4 (HCK 78-138),"PIK3R1 80-333 (Homo sapiens, UniProt P27986)",ITC,,,,ΔH,-8.82 ± 0.239 kcal/mol
"LPDTDDRHRIEEKRKRTYETFKSIAKKSPFNGP (Rela 289-321 M313A (Mus musculus, UniProt Q04207); sequence looked up)",NFKBIA,ITC,peptide,,,ΔH,-3 ± 0.02 kcal/mol
B5 (PUX2 1-149),CDC48A,ITC,,,,ΔH,-3.61 ± 1.2 kcal/mol
B6 (TNFRSF4 29-170 W86A),TNFSF4,SPR,,van't Hoff,,ΔH,-18.5 kcal/mol
FYN fragment (Homo sapiens) (sequence not shown),PIK3R1 fragment (Homo sapiens),ITC,,,,ΔH,-14.9 ± 0.741 kcal/mol
PUX5 fragment (Arabidopsis thaliana),CDC48A,ITC,,,,ΔH,1.1 ± 0.0239 kcal/mol
B7 (UBASH3A 276-340),"PIK3R1 80-724 (Homo sapiens, UniProt P27986)",ITC,,,,ΔH,-1.98 ± 0.167 kcal/mol
"PUX5 (Arabidopsis thaliana, UniProt Q7Y175)",CDC48A,ITC,,,,ΔH,-9.61 ± 0.191 kcal/mol
B8 (DTNA 458-564),"DMD 3365-3685 (Homo sapiens, UniProt P11532-1)",ITC,,25 °C,,ΔH,-9.95 kcal/mol
"B9 (ATG23 full-length, dimer)","ATG9 1-255 (Saccharomyces cerevisiae, UniProt Q12142)",ITC,,"20 °C, NaCl 150 mM",,ΔH,-1.77 kcal/mol
"DDRHRIEEKRKRTYETFKSIMKKSPFNGP (Rela 293-321 (Mus musculus, UniProt Q04207); sequence looked up)",NFKBIA,ITC,peptide,,,ΔH,-4.2 ± 0.2 kcal/mol
B10 (PUX7 171-468),CDC48A,ITC,,,,ΔH,4.59 ± 0.12 kcal/mol
BRCA1 coiled-coil domain (Homo sapiens),"PALB2 1-56 (Homo sapiens, UniProt Q86YC2)",ITC,,,,ΔH,-1.5 ± 0.06 kcal/mol
